Results of several laboratories.
A part holds a random share of what one study measured. Substitutions count along the parent as printed.

Set 1 — technique: RNA Bind-n-Seq; form: RNA; medium: in vitro; concentration: 365 nM; reference: no-protein control; direction: higher = stronger binding
Target: RNA binding protein fox-1 homolog 2, RRM domain, GST-SBP tag (RBFOX2, Homo sapiens, UniProt O43251-10, residues 100-194)
Setting: natural RNA segment, single round, ends assumed
Target sequence (chain): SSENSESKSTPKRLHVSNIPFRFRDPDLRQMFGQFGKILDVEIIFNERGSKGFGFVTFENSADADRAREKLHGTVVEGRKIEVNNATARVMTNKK
For `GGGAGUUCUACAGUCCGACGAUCGAGGUGUCGUUCUUUUGUGACGUCAGCGUAUGUGUACCUAUUCCUUUGUUUGCGGUGUACUGAGGGACCGAUGUAUCCACUGGAAUAGUUGGUACUCUCGGACAGGUUUUUGGAAUUCUCGGGUGCCAA`, “RBNS enrichment (R)” read 0.789.
`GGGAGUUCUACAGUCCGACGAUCUAUAAGGCGCCAUCAUUCCUCAAGUCAAGCCUCCAUCCCAAAGCACCUGGAGCUGUGGCAAUGAUGCCAGCAACCUGUGUCACCCAAAAUAGUCAAAAUCCAGCCCUCCAUGGAAUUCUCGGGUGCCAA`: “RBNS enrichment (R)” 0.848.
`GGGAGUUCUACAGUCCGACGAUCGAUCUCCUGACCUCGUGAUCCGCCCGCCUCGGCCUCCCAAAGUGCUGGGAUUACAGGCGUGAGCCACCGUGCCUGCCCCAGAAUGGUUUUUAAAGCCACAGUUGAGAGGCUGGAAUUCUCGGGUGCCAA` — result for “RBNS enrichment (R)”: 0.213.
Under “RBNS enrichment (R)”, `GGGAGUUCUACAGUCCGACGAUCGUUGCCUGUUGUUCGGUUGUGUGACUAAUUGUGGAUUUUAAGCUGCUAUUAUUGUAUUUCAGUGGCAAUGGACACAUUAGCCUUUUACAAGAGGACUAGAGUUCAUCAAGUGGAAUUCUCGGGUGCCAA` is recorded as 1.68.
`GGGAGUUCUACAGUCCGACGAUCUCUGAAUUUUGAAAAACCACAAAGCUACAAACUGACCCUCUUUUUUUUUUGAGACGGAGUUUUGCUCUUGUUACCCAGGCUGGAGUGCAGUGGCGUGAUCUUGGCUCACUUGGAAUUCUCGGGUGCCAA` — result for “RBNS enrichment (R)”: 0.287.
`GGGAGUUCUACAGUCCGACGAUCCAUGAAAAUCUCUGAUUCUGACCUCCUAAGGAAAAAUGAAACCCAGAGGAUGUGGUCAUACAGGAUGGCUCCCAUGUGGGCCUAGAACCCAGGAUGCUUCACUCUUGACUUGGAAUUCUCGGGUGCCAA` — result for “RBNS enrichment (R)”: 0.483.
`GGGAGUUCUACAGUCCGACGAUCAGGCAGUUUAGGUCAAGAGCUGAGCCAAGGUGCUUGAGGAAGGCUUUGCUACAGGAGUGUAGAGACAGACAGCCCCAAGAGCUGUCAGCAUUGGAAGCCAGACUUGAUUCUGGAAUUCUCGGGUGCCAA` — result for “RBNS enrichment (R)”: 0.424.
`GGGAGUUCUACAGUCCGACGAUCCUGUUCCCGUCCACAAGCUGAGCCAUAUGUACAUAAGCUAGACUGUUUUCUUAGGUGUGCACUUUUAUAGUCUGUUUUUGAAGAUUAACACAUUUGCAAGGUGAUUGACAUGGAAUUCUCGGGUGCCAA` — result for “RBNS enrichment (R)”: 0.794.
`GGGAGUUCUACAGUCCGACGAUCUUAAUAGACAAAGUAAUAAAUCAUGUUUAUCUAUUGAUUUAAACUUCAUCAGUUUUGCAUCCUACUGAGAAAUGUUAGUGAUUUUGAUACUUAAAUCCUUAAAAGAUUGCUGGAAUUCUCGGGUGCCAA`: “RBNS enrichment (R)” 4.06.
Under “RBNS enrichment (R)”, `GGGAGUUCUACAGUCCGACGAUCUGGAAUUCUUUUGUCCAUGUUAAAAAGACUUGAAAACUGAAACGUCACGGUACAGUGUUAAUUCACGCCUGUGUGUGUAACAGGACACUCAGCAAUUAUCUUAAGAACACUGGAAUUCUCGGGUGCCAA` is recorded as 0.397.
Under “RBNS enrichment (R)”, `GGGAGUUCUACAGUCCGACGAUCGGGAGAGAGGGAUGGUUUCUGAGGGGUUCUGAAAGUAUGAUUCAAUGUGCAACAUACAGGUAGGUCUUCAGCAUAAGCUGAAAUAUAUGCAUGUAAAAACUUUGACAUCUUGGAAUUCUCGGGUGCCAA` is recorded as 3.06.
`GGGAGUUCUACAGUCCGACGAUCUGGGUAUGUUUAAUCUGUUAUGUACUAGUGUUCUGUUUGUUAUUGUUUUGUUAAUUACACCAUAAUGCUAAUUUAAAGAGACUCCAAAUCUCAAUGAAGCCAGCUCACAGUGGAAUUCUCGGGUGCCAA` — result for “RBNS enrichment (R)”: 0.417.

Set 2 — technique: protein binding microarray; form: double-stranded DNA, one strand shown; medium: in vitro; concentration: not given; reference: not given; direction: higher = stronger binding
Target: Histone acetyltransferase KAT6A, winged helix 1, GST fusion (KAT6A, Homo sapiens, UniProt Q92794, residues 1-85)
Setting: 8-mer, flanks averaged, mean of 2 arrays, mostly near background
Target sequence (chain): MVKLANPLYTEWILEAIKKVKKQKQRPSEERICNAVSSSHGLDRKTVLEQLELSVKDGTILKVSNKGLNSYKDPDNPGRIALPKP
With `AACCTGCA` the E-score was -0.164.
`CACACGGC` gave an E-score of 0.345.
`GGCTCGGA` gave an E-score of 0.201.
The E-score of `GAATGTGA` is reported as -0.197.
The E-score of `ATGTGTGA` is reported as -0.301.
`CAGGACGG` gave an E-score of 0.0724.
`CACACCTG` has an E-score of -0.202.
`ATAGTCCA` has an E-score of -0.258.
For `TCACCCCA`, the E-score was -0.145.
The E-score of `CCGACAAG` is reported as 0.119.
For `GCTACGCA`, the E-score was 0.176.
For `GATATTAC`, the E-score was 0.0628.
`AGAAAGGA` gave an E-score of -0.113.
`CTGCACCC` has an E-score of -0.159.
`CAAAGTTG` gave an E-score of -0.179.
The E-score of `ACGGCAGC` is reported as 0.335.
`AGGGTTAT` gave an E-score of -0.139.
`GCGACGTA` has an E-score of 0.14.
`AGGTTCTC` has an E-score of -0.0109.

Set 3 — technique: aptamer microarray, sandwich; form: DNA with 2'F-ANA; medium: in vitro; concentration: 200 nM; added: Cy3 exosite-II aptamer, 400 nM; direction: higher = stronger binding; sequence: GGTTGGTGTGGTTGG
Target: Prothrombin, mature alpha-thrombin (F2, Homo sapiens, UniProt P00734)
Setting: whole 15-mer aptamer, many near background
Under “mean fluorescence intensity”, `2'F-ANA at 1 2 4 5 6 7 9 10 12 13` is recorded as 60.7 a.u.
`2'F-ANA at 2 5 7 10`: “mean fluorescence intensity” 47.3 a.u.
`2'F-ANA at 3 5 6 7 11`: “mean fluorescence intensity” 88.7 a.u.
For `2'F-ANA at 1 2 3 6 8 9 12`, “mean fluorescence intensity” read 435 a.u.
Under “mean fluorescence intensity”, `2'F-ANA at 1 2 4 5 6 7 10 11 13 15` is recorded as 51.9 a.u.
For `2'F-ANA at 1 2 4 5 7 8 9 10 11 14 15`, “mean fluorescence intensity” read 145 a.u.
`2'F-ANA at 1 2 3 5 6 8 10 12 13 14 15` — result for “mean fluorescence intensity”: 47.9 a.u.
Under “mean fluorescence intensity”, `2'F-ANA at 3 5 8 9 11 15` is recorded as 107 a.u.
`2'F-ANA at 6 7 8 10 12 13`: “mean fluorescence intensity” 174 a.u.
For `2'F-ANA at 1 2 6 9 10 11 12`, “mean fluorescence intensity” read 61.1 a.u.
Under “mean fluorescence intensity”, `2'F-ANA at 3 4 5 8 9 12 14 15` is recorded as 56.6 a.u.
Under “mean fluorescence intensity”, `2'F-ANA at 1 5 6 7 10 11 14` is recorded as 51.3 a.u.
`2'F-ANA at 5 6 7 9 13 15` — result for “mean fluorescence intensity”: 52.2 a.u.
For `2'F-ANA at 3 6 8 9 12 14 15`, “mean fluorescence intensity” read 642 a.u.
For `2'F-ANA at 1 3 4 6 8 11 14 15`, “mean fluorescence intensity” read 68.7 a.u.
For `2'F-ANA at 1 3 4 7 8 11 13`, “mean fluorescence intensity” read 236 a.u.
`2'F-ANA at 1 2 3 4 6 7 9 12 15`: “mean fluorescence intensity” 266 a.u.
`2'F-ANA at 1 2 3 10 11 12 13`: “mean fluorescence intensity” 84.9 a.u.
`2'F-ANA at 2 3 4 5 6 7 11` — result for “mean fluorescence intensity”: 72.8 a.u.
`2'F-ANA at 1 3 5 7 8 10 13 14 15`: “mean fluorescence intensity” 45.9 a.u.
`2'F-ANA at 1 2 3 6 10 11 14 15`: “mean fluorescence intensity” 109 a.u.
For `2'F-ANA at 2 4 7 12 13 14 15`, “mean fluorescence intensity” read 189 a.u.
`2'F-ANA at 3 4 8 10 11 12 13 14 15` — result for “mean fluorescence intensity”: 167 a.u.
`2'F-ANA at 1 2 6 7 8 9 10 14` — result for “mean fluorescence intensity”: 52 a.u.
Under “mean fluorescence intensity”, `2'F-ANA at 2 3 6 7 10 12` is recorded as 430 a.u.

Set 4 — technique: DHFR PCA, deep sequencing; medium: yeast; added: (+)-ABA 4.8 µM; reference: wild-type fitted maximum; direction: higher = stronger binding
Target: ABI1, truncated, D143A, DHFR fusion (Arabidopsis thaliana)
Setting: methotrexate growth selection, single substitutions
Starting sequence: PYL1, truncated, DHFR fusion (Arabidopsis thaliana); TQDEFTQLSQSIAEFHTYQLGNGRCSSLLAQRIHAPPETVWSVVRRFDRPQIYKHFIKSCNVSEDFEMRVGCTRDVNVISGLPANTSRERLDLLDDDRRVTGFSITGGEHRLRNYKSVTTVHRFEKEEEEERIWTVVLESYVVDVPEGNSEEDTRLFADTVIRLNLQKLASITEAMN
Under “relative binding score”, `Y115R` is recorded as -18.2%.
`E131D`: “relative binding score” 92.4%.
`L20W`: “relative binding score” 51%.
`N165M`: “relative binding score” -18.2%.
`I162V` — result for “relative binding score”: 79.8%.
Under “relative binding score”, `S80I` is recorded as 22.6%.
`G102P`: “relative binding score” -15.4%.
Under “relative binding score”, `F15H` is recorded as 62.3%.
`D3M`: “relative binding score” 62.7%.
Under “relative binding score”, `P83D` is recorded as 22%.
`F103W` — result for “relative binding score”: 6.26%.
Under “relative binding score”, `I105R` is recorded as -12%.
For `S59Q`, “relative binding score” read 58.4%.
For `D144E`, “relative binding score” read 29%.
`V78S`: “relative binding score” 14.6%.
Under “relative binding score”, `E131T` is recorded as 81%.
`F5S`: “relative binding score” 54.5%.
`L138D` — result for “relative binding score”: -7.06%.
`E67T` — result for “relative binding score”: 71.2%.
`F103S` — result for “relative binding score”: -2.5%.
For `R32K`, “relative binding score” read 75%.
`T106E`: “relative binding score” 50.3%.
`T173W` — result for “relative binding score”: -10.4%.

Set 5 — Molecule: GAPLKKLFTSTGL; observed: peptide binding; form: peptide; concentration: concentration not given; direction: direction not given
The binding score was 0.661 (human cyclin A2; competitive growth sequencing; Saccharomyces cerevisiae, cyclin A2-Cln2 fusion strain; mutational scanning library 1; reference: unfused Cln2 strain).
The binding score was 0.525 (Saccharomyces cerevisiae; yeast competitive growth sequencing; cyclin-Cln2 fusion strain; library 1).
Saccharomyces cerevisiae; yeast competitive growth sequencing; cyclin F-Cln2 fusion; library 1, Cln2-subtracted — binding score: 1.
It gave 2.17 for binding score (Saccharomyces cerevisiae; yeast competitive growth sequencing; cyclin F-Cln2 fusion; combined libraries, Cln2-subtracted).
It gave 1.16 for binding score (Saccharomyces cerevisiae; yeast competitive growth sequencing; cyclin E2-Cln2 fusion; combined libraries).
For human cyclin A2; competitive growth sequencing; Saccharomyces cerevisiae, cyclin A2-Cln2 fusion strain; combined libraries; reference: unfused Cln2 strain: binding score read 1.71.

A few entries again (set 3):
For `2'F-ANA at 3 6 8 9 12 14 15`, “mean fluorescence intensity” read 642 a.u.
Under “mean fluorescence intensity”, `2'F-ANA at 1 2 4 5 6 7 10 11 13 15` is recorded as 51.9 a.u.
`2'F-ANA at 3 5 6 7 11`: “mean fluorescence intensity” 88.7 a.u.
Under “mean fluorescence intensity”, `2'F-ANA at 3 4 5 8 9 12 14 15` is recorded as 56.6 a.u.
Under “mean fluorescence intensity”, `2'F-ANA at 1 2 4 5 6 7 9 10 12 13` is recorded as 60.7 a.u.
For `2'F-ANA at 1 2 3 6 8 9 12`, “mean fluorescence intensity” read 435 a.u.
`2'F-ANA at 2 3 4 5 6 7 11` — result for “mean fluorescence intensity”: 72.8 a.u.
